Measurements pooled from the literature.
EGFR: Epidermal growth factor receptor (EGFR, Homo sapiens, UniProt P00533)
EGFR L858R: Epidermal growth factor receptor (EGFR, Homo sapiens, UniProt P00533, L858R)

Compound	target	test	setting	scale	measurement	result
CCOC(=O)[C@@H]1Cc2c(cc([N+](=O)[O-])cc2[N+](=O)[O-])[C@H](O)[C@]12C(=O)Nc1ccc(Br)cc12	EGFR	KINOMEscan	100 nM	reference: DMSO control	remaining binding	87%
O=C(CN1CN(c2ccccc2)C2(CCN(C(=O)c3cnc4[nH]ncc4c3)CC2)C1=O)NCC(F)(F)F	EGFR (Homo sapiens, UniProt P00533, del752-759)	inhibitor	concentration not given		inhibition	< 50%
N[C@H](C(=O)N1CCCC1)C1CCN(c2nccc3c(-c4ncc(Cl)cc4Cl)cccc23)CC1	EGFR	kinase activity, inhibitor	10 µM, together with: ATP 1 mM		inhibition	2.9%
Nc1ccc(/C=C/C(=O)N2CCc3c(oc4c(-c5ccc(F)cc5)cc(-c5ccc(C(=O)N6CCC(F)(F)CC6)cn5)cc34)C2)cn1	EGFR L858R	binding, competition with immobilised ligand	1 µM		remaining binding	77%
CC(C)[C@H]1NC(=O)C[C@H]2/C=C/CCSSC[C@@H](NC1=O)C(=O)N[C@H](Cc1cccc3ccccc13)C(=O)NCC(=O)O2	EGFR	enzyme activity, inhibitor	10 µM		inhibition	-10.7%
CS(C)(=O)=Nc1ccc(-c2ccc(-c3nc4cc(O[C@@H]5CO[C@H]6[C@@H]5OC[C@H]6O)[nH]c4cc3F)cc2)cc1	EGFR (Homo sapiens, UniProt P00533, L858R/T790M)	enzyme activity, inhibitor	10 µM		inhibition	-36%
O=C1NC(=O)c2c1c1cc(F)c[n+]3c1c1c2c2cc(O)ccc2[n]1[Ru-4]312([N]=C=S)[S+]3CC[S+]1CC[S+]2CC3 (centres unmarked)	EGFR L858R	enzyme activity	100 nM, human enzyme, together with: 10 µM ATP	reference: untreated	remaining activity	61%
CN[C@@H]1[C@H](O)[C@H](NC)[C@H]2O[C@]3(O)[C@H](O[C@@H]2[C@H]1O)O[C@H](C)C[C@H]3NC(=O)Cc1cc(Cl)ccn1	EGFR		10 µM		inhibition	18%

Repeated from above:
Compound	target	test	setting	scale	measurement	result
O=C1NC(=O)c2c1c1cc(F)c[n+]3c1c1c2c2cc(O)ccc2[n]1[Ru-4]312([N]=C=S)[S+]3CC[S+]1CC[S+]2CC3 (centres unmarked)	EGFR L858R	enzyme activity	100 nM, human enzyme, together with: 10 µM ATP	reference: untreated	remaining activity	61%
